Measurements from different studies.
Each numbered part is a random draw from the data of one study; scales do not carry over between parts. Positions count from the first letter of the parent shown.

Sample 1 — method: protein-binding microarray; molecule type: double-stranded DNA, one strand shown; sample: in vitro; tested at: 2540 nM top; notes: 60-bp whole probe; added: salmon DNA 0.4 mg/ml; reference: random background probes; reading: higher = stronger binding; measurement: fitted relative affinity; all sequences stand within: GCCTAGCAC … GTCTTGATTCGCTTGACGCTGCTG
Target: Interferon regulatory factor 3, full length, phosphomimetic (IRF3, Homo sapiens, UniProt Q14653, residues 1-427, S386D/S396D/S398D/S402D/T404D/S405D)
Construct (chain): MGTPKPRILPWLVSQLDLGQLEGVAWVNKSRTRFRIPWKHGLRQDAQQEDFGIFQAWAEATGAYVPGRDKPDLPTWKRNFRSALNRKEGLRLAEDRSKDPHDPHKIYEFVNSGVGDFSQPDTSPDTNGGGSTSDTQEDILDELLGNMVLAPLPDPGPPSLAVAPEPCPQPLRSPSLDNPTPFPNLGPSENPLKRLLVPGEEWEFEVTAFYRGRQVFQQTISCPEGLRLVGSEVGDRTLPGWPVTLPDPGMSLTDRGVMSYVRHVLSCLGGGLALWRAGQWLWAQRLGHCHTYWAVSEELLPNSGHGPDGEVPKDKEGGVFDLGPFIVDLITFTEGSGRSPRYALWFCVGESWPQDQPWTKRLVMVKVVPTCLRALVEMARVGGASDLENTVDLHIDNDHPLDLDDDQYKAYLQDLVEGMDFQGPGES
Strand = TTCACTTTCTTTAACATATTGTGCTAG; value = 2.75 z-score
Strand = TTAGATATCGGGATTGGATTAGTGCTA; value = 0.15 z-score
Strand = TCATAAAACAACTTTCAAACTGTGCTA; value = 0.128 z-score
Strand = ATAGGTATCGGGACTGGGTTAGTGCTA; value = 1.3 z-score
Strand = GACGGTATCCTACTGCTGAAGTGCTAG; value = 2.75 z-score
Strand = TCAATTTTCTGAATGCTACTGTGCTAG; value = 1.43 z-score
Strand = TTAGAACTGAGTTTCGATCAGTGCTAG; value = 1.39 z-score
Strand = GACGCTATCGACTATCGGGACGTGCTA; value = -0.124 z-score

Sample 2 — method: RNAcompete; molecule type: RNA; sample: in vitro; tested at: 20 nM; notes: 7-mer, probes averaged, single round; reference: mean of 7-mers; reading: higher = stronger binding; measurement: 7-mer Z-score
Target: PABPC1L2, full length, GST fusion (mouse, UniProt A0ABA7IW68)
Residues (chain): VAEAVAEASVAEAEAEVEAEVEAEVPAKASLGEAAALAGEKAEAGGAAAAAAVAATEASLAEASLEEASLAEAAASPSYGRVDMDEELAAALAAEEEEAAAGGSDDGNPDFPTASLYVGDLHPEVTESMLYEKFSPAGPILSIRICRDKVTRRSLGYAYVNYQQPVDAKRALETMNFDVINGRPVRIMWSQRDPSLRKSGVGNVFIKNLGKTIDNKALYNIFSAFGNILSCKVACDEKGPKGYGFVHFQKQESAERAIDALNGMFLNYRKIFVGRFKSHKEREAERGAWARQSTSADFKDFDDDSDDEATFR
Strand = CUUUGGG; value = -0.277
Strand = AACUCGC; value = -0.144
Strand = GUUGAGA; value = -0.137
Strand = AGACUAC; value = -0.17
Strand = GAGACGG; value = 0.244
Strand = AACGUAU; value = 0.186
Strand = GAAGACC; value = -0.0917
Strand = GACGGGA; value = 0.142

Single results of other studies — CCND2: CCND2, cyclin fold, Cln2 fusion (human)
OGT: UDP-N-acetylglucosamine--peptide N-acetylglucosaminyltransferase 110 kDa subunit (OGT, Homo sapiens, UniProt O15294)
Chain of UniProt O15294 (whole entry, looked up): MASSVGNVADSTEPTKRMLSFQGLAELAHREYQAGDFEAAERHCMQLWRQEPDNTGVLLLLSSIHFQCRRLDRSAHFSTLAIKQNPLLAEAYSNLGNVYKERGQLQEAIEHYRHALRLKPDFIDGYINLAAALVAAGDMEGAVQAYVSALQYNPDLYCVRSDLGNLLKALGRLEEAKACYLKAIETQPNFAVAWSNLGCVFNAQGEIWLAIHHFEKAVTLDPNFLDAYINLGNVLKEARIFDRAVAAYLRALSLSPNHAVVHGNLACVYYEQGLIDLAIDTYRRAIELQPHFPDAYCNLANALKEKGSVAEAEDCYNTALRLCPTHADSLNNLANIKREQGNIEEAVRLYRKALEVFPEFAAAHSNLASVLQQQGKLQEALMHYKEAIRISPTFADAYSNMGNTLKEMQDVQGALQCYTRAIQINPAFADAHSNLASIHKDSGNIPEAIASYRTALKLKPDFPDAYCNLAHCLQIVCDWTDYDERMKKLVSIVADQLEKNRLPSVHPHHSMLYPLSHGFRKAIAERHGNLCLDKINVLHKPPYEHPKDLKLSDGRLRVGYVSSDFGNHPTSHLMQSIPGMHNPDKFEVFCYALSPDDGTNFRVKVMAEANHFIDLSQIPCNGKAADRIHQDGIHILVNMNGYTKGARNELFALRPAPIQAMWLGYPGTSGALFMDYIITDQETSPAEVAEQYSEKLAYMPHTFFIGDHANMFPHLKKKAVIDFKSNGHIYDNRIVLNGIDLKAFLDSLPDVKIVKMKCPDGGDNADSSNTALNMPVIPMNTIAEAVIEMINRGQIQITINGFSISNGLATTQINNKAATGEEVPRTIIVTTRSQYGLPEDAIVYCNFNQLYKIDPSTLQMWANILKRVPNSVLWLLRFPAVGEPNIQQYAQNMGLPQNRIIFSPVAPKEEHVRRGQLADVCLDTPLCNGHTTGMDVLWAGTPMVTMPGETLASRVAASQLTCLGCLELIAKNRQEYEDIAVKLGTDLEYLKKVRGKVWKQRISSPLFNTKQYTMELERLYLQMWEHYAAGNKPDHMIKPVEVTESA
P1: viral docking peptide; KGVKRKLFAEDSS; partner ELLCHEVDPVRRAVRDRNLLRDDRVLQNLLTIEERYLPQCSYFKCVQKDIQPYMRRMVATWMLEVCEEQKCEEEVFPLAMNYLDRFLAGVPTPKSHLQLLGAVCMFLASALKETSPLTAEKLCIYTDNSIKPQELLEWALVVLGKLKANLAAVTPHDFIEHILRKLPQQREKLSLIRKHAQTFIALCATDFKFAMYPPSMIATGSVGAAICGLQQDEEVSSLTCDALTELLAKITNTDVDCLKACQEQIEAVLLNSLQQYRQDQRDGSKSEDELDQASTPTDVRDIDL
Molecule = P1 K6T; target = CCND2; test = yeast growth competition, sequencing; test system = yeast; setting = weak parent motif; scale = reference: not given, higher = stronger binding; measurement = normalised enrichment score; value = 0.219
Molecule = PhoQ, residues 284 288 289 292 302 303 SCCLKL; target = PhoP, residues 12 14 15 18 19 SPWRL (Escherichia coli, UniProt P23836); test = Sort-seq, refers to: YFP reporter; test system = E. coli; setting = PhoQ-PhoP variant library, added: 10 µM Mg2+; scale = reference: high Mg2+ state, higher = stronger signaling; measurement = fold induction; value = 7.71
Molecule = SMAWHHPHGYHWPQA; target = OGT; test = binding, phage display NGS; test system = peptide; setting = concentration not given, normalized abundance; scale = reference: input library; measurement = enrichment fold change; value = 5
Molecule = P1 E10K; target = CCND2; test = yeast growth competition, sequencing; test system = yeast; setting = weak parent motif; scale = reference: not given, higher = stronger binding; measurement = normalised enrichment score; value = -0.592
Molecule = RELNPVYMIDYTMAV; target = OGT; test = binding, phage display NGS; test system = peptide; setting = concentration not given, normalized abundance; scale = reference: input library; measurement = enrichment fold change; value = 6.33
Molecule = P1 E10L; target = CCND2; test = yeast growth competition, sequencing; test system = yeast; setting = weak parent motif; scale = reference: not given, higher = stronger binding; measurement = normalised enrichment score; value = 0.00779

Some of these lines once more (sample 2):
Strand = CUUUGGG; value = -0.277
Strand = AACUCGC; value = -0.144
Strand = GUUGAGA; value = -0.137
